Measured values pooled from the literature.
Each line is one published result; not all experiments were run side by side.
FGFR3: Fibroblast growth factor receptor 3 (FGFR3, Homo sapiens, UniProt P22607)
FGFR3 G697C: Fibroblast growth factor receptor 3 (FGFR3, Homo sapiens, UniProt P22607, G697C)

CN1CCN(Cc2ccc(NC(=O)c3cccc(C#Cc4cnc(N)c5ncccc45)c3)cc2C(F)(F)F)CC1  remaining binding (FGFR3; cell-free assay, competition with immobilised ligand; 0.5 µM): 1.2%
C=CC(=O)N1CCc2ccc(-n3c(=O)ccc4cnc5ccc(-c6cnn(C)c6)cc5c43)cc21  remaining binding (FGFR3 G697C; KINOMEscan; 1 µM; relative to: DMSO control): 100%
CNC1C[S+]2CC[S+]3CC[S+](C1)[Ru-4]321([N]=C=S)[n]2c3ccc(OC)cc3c3c4c(c5cc(F)c[n+]1c5c32)C(=O)NC4=O (stereo not shown)  remaining binding (FGFR3 G697C; KinomeScan; 0.1 µM; relative to: untreated): 100%
CNC(=O)C1CCN(c2cc(C)c(F)cc2NC(=O)c2ccc(-c3cc(O)ccc3C)c(C)c2)CC1  remaining binding (FGFR3 G697C; binding, competition with immobilised ligand; 1 µM): 100%
CC(C)=CC1OC(C)(C)C2C=C3C(=O)C(Cl)=CC(O)C3C3C(O)C4OC4C(=O)C132 (stereo not shown)  remaining binding (FGFR3; cell-free assay, competition with immobilised ligand; 10 µM): 81%
CC(=O)N1c2ccc(-c3ccc(CNC(=O)c4cn5cc(-c6cnc(N)nc6)nc(N6CCOCC6)c5n4)cc3)cc2CC[C@@H]1C  remaining binding (FGFR3; KINOMEscan; 10 µM): 100%
CCN1CCN(Cc2ccc(C(=O)Nc3ccc(C)c(NCc4cnc5[nH]ccc5c4OC)c3)cc2C(F)(F)F)CC1  remaining binding (FGFR3; binding, competition with immobilised ligand; 1 µM): 32%
Cc1ccc(-c2c(/C=C(\C#N)C(=O)NC(C)C)n(CCCO)c3ncnc(N)c23)cc1  remaining binding (FGFR3; cell-free assay, competition with immobilised ligand; 1 µM): 100%
CNS(=O)(=O)Nc1nccc(Cc2c(C)c3ccc(Oc4ncccc4F)cc3oc2=O)c1F  remaining binding (FGFR3; cell-free assay, competition with immobilised ligand; 10 µM): 97%
COc1c(Cl)cccc1Nc1c(-c2ccncc2C#C[C@@]2(C)CCCN2C(=O)/C=C/CN(C)C)[nH]c2c1C(=O)NCC2  remaining binding (FGFR3 G697C; cell-free assay, competition with immobilised ligand; 3 µM): 89%
Cc1cnc2nc1Nc1cccc(c1)COC/C=C/COCc1cc(ccc1OCCN1CCOCC1)N2  remaining binding (FGFR3 G697C; binding; 0.1 µM): 100%
Nc1ncc2c(n1)-c1c([nH]c3ccc(C4=CCOCC4)cc13)CCC2  remaining binding (FGFR3; binding, competition with immobilised ligand; 1 µM): 100%
C=CC(=O)N1CCCC(n2c(=O)c3ncccc3n(Cc3ccc(Oc4ccccc4)cc3)c2=O)C1 (stereo not shown)  remaining binding (FGFR3; cell-free assay, competition with immobilised ligand; 1 µM): 99%

Repeated from above:
CC(=O)N1c2ccc(-c3ccc(CNC(=O)c4cn5cc(-c6cnc(N)nc6)nc(N6CCOCC6)c5n4)cc3)cc2CC[C@@H]1C  remaining binding (FGFR3; KINOMEscan; 10 µM): 100%
CCN1CCN(Cc2ccc(C(=O)Nc3ccc(C)c(NCc4cnc5[nH]ccc5c4OC)c3)cc2C(F)(F)F)CC1  remaining binding (FGFR3; binding, competition with immobilised ligand; 1 µM): 32%
